Experimental data collected from several papers.
Lines come from different studies, so protocols differ. Numbers after ± are the reported error.
Cell line: HEK293

COc1c(Oc2c(O)c(OC)c(OC)c3c2ccc2cc(O)ccc23)cc2c(c1OC)-c1ccc(O)cc1CC2 — IC50 (cell growth or viability, CCK-8; 24 h): 8.14 µM
CC(C)C[C@H](NC(=O)[C@@H](CCCNC(=N)N)NC(=O)[C@H](Cc1c[nH]cn1)NC(=O)[C@H](CO)NC(=O)[C@H](Cc1c[nH]c2ccccc12)NC(=O)[C@H](Cc1c[nH]cn1)NC(=O)[C@@H]1CCC(=O)N1)C(=O)N[C@@H](CCCNC(=N)N)C(=O)N1CCC[C@H]1C(=O)NCC(N)=O — IC50 (cell growth or viability, SRB): 0.0359 µM
Cc1nn(-c2ccccc2)c(O)c1C(c1ccc([N+](=O)[O-])cc1)c1c(C)nn(-c2ccccc2)c1O — IC50 (cell growth or viability, MTT; 48 h): > 40 µM
CCOC(=O)C(C)(COP(=O)(OC)OCCCCCCNC(=O)c1cc2ccccc2oc1=O)C(=O)CSC(C)=O (stereo not drawn) — IC50 (K-Ras G12V nanoclustering, FRET; 24 h): 1.65 ± 0.95 µM
Cc1cc(C)c(-n2c[n+](-c3c(C)cc(C)cc3C)c3c2-c2cccc4cccc-3c24)c(C)c1.[Cl][Pd-]([Cl])[CH2]C=Cc1ccccc1 — IC50 (cell growth or viability, MTT; 72 h): 1.1 µM
COC(=O)[C@@H](NC(=O)[C@@H](NC(=O)[C@@H](NC(=O)[C@@H]1CCCN1C(=O)[C@H](C)NC(=O)OC(C)(C)C)C(C)C)C(C)C)C(C)C — IC50 (cell growth or viability, SRB): 412 µM
COc1c(O)c(-c2c(O)c(OC)c(OC)c3c2ccc2cc(O)ccc23)c2c(c1OC)-c1ccc(O)cc1CC2 — IC50 (cell growth or viability, CCK-8; 24 h): 18.5 µM
Cc1nn(-c2ccccc2)c(O)c1C(c1cccs1)c1c(C)nn(-c2ccccc2)c1O — IC50 (cell growth or viability, MTT; 48 h): > 40 µM
COC(=O)[C@H](C(C)C)N(C)C(=O)[C@H](C(C)C)N(C)C(=O)[C@@H]1CCCN1C(=O)[C@H](C)N(C)C(=O)OC(C)(C)C — IC50 (cell growth or viability, SRB): 369 µM
CC(C)c1cccc(C(C)C)c1-n1c[n+](-c2c(C(C)C)cccc2C(C)C)c2c1-c1cccc3cccc-2c13.[Cl][Pd-]([Cl])[CH2]C=Cc1ccccc1 — IC50 (cell growth or viability, MTT; 72 h): 2.3 µM
CCc1ccc(C(c2c(C)nn(-c3ccccc3)c2O)c2c(C)nn(-c3ccccc3)c2O)cc1 — IC50 (cell growth or viability, MTT; 48 h): > 40 µM
O=S(=O)([O][Pt]([O]S(=O)(=O)C(F)(F)F)([PH](c1ccccc1)(c1ccccc1)c1ccc[cH-]1)[PH](c1ccccc1)(c1ccccc1)c1ccc[cH-]1)C(F)(F)F.[Fe+2] — IC50 (cell growth, MTT; 24 h): 65.3 µM
C#CCCCC[C@H](C)C[C@@H](C)C(=O)N(C)[C@@H](C)C(=O)N1CCC[C@H]1C(=O)N(C)[C@H](C(=O)N(C)[C@H](C(=O)OC)C(C)C)C(C)C — IC50 (cell growth or viability, SRB): 97 µM
Cc1nn(-c2ccccc2)c(O)c1C(c1ccccc1[N+](=O)[O-])c1c(C)nn(-c2ccccc2)c1O — IC50 (cell growth or viability, MTT; 48 h): > 40 µM
NCCCC[C@@H](NC(=O)[C@H](Cc1c[nH]cn1)NC(=O)[C@H](CO)NC(=O)[C@H](Cc1c[nH]c2ccccc12)NC(=O)[C@H](Cc1c[nH]cn1)NC(=O)[C@@H]1CCC(=O)N1)C(=O)N[C@@H](Cc1c[nH]c2ccccc12)C(=O)N[C@@H](Cc1ccc(O)cc1)C(=O)N1CCC[C@H]1C(=O)NCC(N)=O — IC50 (cell growth or viability, SRB): 0.0065 µM

Some of these lines once more:
COc1c(O)c(-c2c(O)c(OC)c(OC)c3c2ccc2cc(O)ccc23)c2c(c1OC)-c1ccc(O)cc1CC2 — IC50 (cell growth or viability, CCK-8; 24 h): 18.5 µM
